Literature values that unrelated publications cite.
Each line is one published result; not all experiments were run side by side. Numbers after ± are the reported error.

Structure (SMILES)	target or system	assay	system	conditions	scale	quantity	value
CC(=O)O[C@H]1C2=C(C(=O)C(OC(=O)c3ccc(Cl)cc3)=C(C(C)C)C2=O)[C@@]2(C)CCCC(C)(C)[C@@H]2[C@@H]1OC(=O)c1ccc(Cl)cc1	MOLT-3					GI50	> 30 µM
C/C(=N/NC(=O)c1cc2ccccc2n1C)c1ccccc1O	Leishmania major		promastigotes			IC50	1.9 µM
O=C(c1ccc(O)c(O)c1)N1CCN(Cc2ccccc2)CC1	Trypanosoma cruzi		Y strain, trypomastigotes			IC50	42.5 ± 8.9 µM
CCC(C)C(=O)c1c(O)c(CCC(C)C)c(O)c2c1OC(=O)CC2c1ccccc1 (stereo not drawn)	Leishmania amazonensis		promastigotes			IC50	0.9 µM
CCOC(=O)c1csc(N/N=C(\C)c2cc3ccccc3oc2=O)n1	Toxoplasma gondii					IC50	55 µM
C=CC(=O)N1CCC[C@@H](n2nc(-c3cccc4ccccc34)c3c(N)ncnc32)C1	Epidermal growth factor receptor (EGFR, Homo sapiens, UniProt P00533, L858R/T790M)					kinact/Ki	90000 ± 20000 M⁻¹ s⁻¹
O=c1ccn(Cc2cn(CCP(=O)(O)O)nn2)c(=O)[nH]1	hepatitis C virus	viral replication				IC50	16 µM
O=[N+]([O-])c1ccc(C(c2c[nH]c3ccc(I)cc23)c2c[nH]c3ccc(I)cc23)cc1	Leishmania donovani		amastigote			IC50	< 10 µM
C/C=C1\NC(=O)[C@H](Cc2ccccc2)NC(=O)[C@H](C(C)C)NC(=O)[C@H](Cc2c[nH]cn2)NC(=O)[C@H](CCC(N)=O)NC(=O)[C@H](Cc2ccc3ccccc3c2)NC(=O)[C@H]2CSC[C@@H](C(=O)N[C@@H](CO)C(=O)O)NC(=O)[C@H](CSC[C@H]3NC(=O)[C@H]([C@@H](C)CC)NC(=O)[C@H](NC(=O)[C@H](Cc4c[nH]cn4)NC(=O)[C@@H](NC(=O)[C@@H](NC(=O)CNC(=O)[C@H](CO)NC(=O)CNC(=O)CNC(=O)[C@@H](N)CCCCN)C(C)C)[C@@H](C)CC)[C@H](C)SC[C@H](NC(=O)[C@H](CCC(=O)O)NC(=O)[C@H](Cc4c[nH]cn4)NC3=O)C(=O)N[C@@H](CCCNC(=N)N)C(=O)N[C@@H](CCSC)C(=O)N[C@@H](CC(N)=O)C(=O)N2)NC1=O	Lactococcus lactis subsp. cremoris	cell growth	HP			IC50	1.37 ± 0.048 µM
C[C@@H](Nc1c(-c2c(F)cc(C#CCCO)cc2F)c(Cl)nc2ncnn12)C(C)(C)C	HEK293			10 µM, 4 h, unit not given	reference: vehicle (DMSO)	acetylated α-tubulin level	5.25 ± 0.89
CN1C(=O)[C@@H](Cc2ccc(O)cc2)NC(=O)CNC(=O)[C@H](Cc2ccc3ccccc3c2)NC(=O)[C@H](CCCNC(=N)N)NC(=O)[C@H]1CCCNC(=O)c1ccc(CNC(=O)CN2CCN(CC(=O)O)CCN(CC(=O)O)CCN(CC(=O)O)CC2)cc1 [gallium-68 labelled]		PET dosimetry	human patients, brain			absorbed dose coefficient	0.01 mGy/MBq
Cc1cccnc1-n1cccc1C(=O)c1ccc(F)cc1	Leishmania donovani		promastigotes			IC50	7.8 µM
CC1(C)O[C@H](COP(=O)(O)O)[C@H](C(=O)NO)O1	Trypanosoma brucei rhodesiense	parasite growth, whole parasite				IC50	> 332 µM
O=[N+]([O-])c1ccc(/C=N/N=C/c2ccc(OCc3ccccc3)cc2)o1	Leishmania donovani		9515, intracellular amastigotes			IC50	0.25 ± 0.09 µM
COCCOCCOCCOCCC(=O)NCc1cc(CNC(=O)CCOCCOCCOCCOC)cc(-c2cc3cc4nc(c(OC)c5[nH]c(cc6nc(cc2[nH]3)CC6(C)C)cc5-c2cc(CNC(=O)CCOCCOCCOCCOC)cc(CNC(=O)CCOCCOCCOCCOC)c2)CC4(C)C)c1			PBS	room temperature		kf^−1	17 ns
C/C=C1\NC(=O)[C@H](Cc2ccccc2)NC(=O)[C@H](C(C)C)NC(=O)[C@H](Cc2c[nH]cn2)NC(=O)[C@H](CCC(N)=O)NC(=O)[C@H](Cc2c[nH]c3ccccc23)NC(=O)[C@H]2CSC[C@@H](C(=O)N[C@@H](CO)C(=O)O)NC(=O)[C@H](CSC[C@H]3NC(=O)[C@H]([C@@H](C)CC)NC(=O)[C@H](NC(=O)[C@H](Cc4c[nH]cn4)NC(=O)[C@@H](NC(=O)[C@@H](NC(=O)CNC(=O)[C@H](CO)NC(=O)CNC(=O)CNC(=O)[C@@H](N)CCCCN)C(C)C)[C@@H](C)CC)[C@H](C)SC[C@H](NC(=O)[C@H](CCC(=O)O)NC(=O)[C@H](Cc4c[nH]cn4)NC3=O)C(=O)N[C@@H](CCCNC(=N)N)C(=O)N[C@@H](CCSC)C(=O)N[C@@H](CC(N)=O)C(=O)N2)NC1=O	Lactococcus lactis subsp. cremoris	cell growth	HP			IC50	0.428 ± 0.021 µM
CN(C)CCCOc1cc(F)c(-c2c(Cl)nc3ncnn3c2NCC2(C)CC2)c(F)c1	HEK293			10 µM, 4 h, unit not given	reference: vehicle (DMSO)	acetylated α-tubulin level	0.49 ± 0.03
CCCCCCCCCCC[C@@H](O)CC(=O)N[C@@H](CC(C)C)C(=O)N[C@H](CCC(=O)O)C(=O)N[C@H]1C(=O)N[C@H]([C@@H](C)CC)C(=O)N[C@H](CC(C)C)C(=O)N[C@H](CO)C(=O)N[C@@H](CC(C)C)C(=O)N[C@@H](CC(C)C)C(=O)N[C@H](CO)C(=O)N[C@@H](C(C)C)C(=O)O[C@@H]1C	Chlamydomonas reinhardtii	immobilization				IC50	4.1 µM

A few entries again:
Structure (SMILES)	target or system	assay	system	conditions	scale	quantity	value
CC1(C)O[C@H](COP(=O)(O)O)[C@H](C(=O)NO)O1	Trypanosoma brucei rhodesiense	parasite growth, whole parasite				IC50	> 332 µM
CCOC(=O)c1csc(N/N=C(\C)c2cc3ccccc3oc2=O)n1	Toxoplasma gondii					IC50	55 µM
C/C=C1\NC(=O)[C@H](Cc2ccccc2)NC(=O)[C@H](C(C)C)NC(=O)[C@H](Cc2c[nH]cn2)NC(=O)[C@H](CCC(N)=O)NC(=O)[C@H](Cc2c[nH]c3ccccc23)NC(=O)[C@H]2CSC[C@@H](C(=O)N[C@@H](CO)C(=O)O)NC(=O)[C@H](CSC[C@H]3NC(=O)[C@H]([C@@H](C)CC)NC(=O)[C@H](NC(=O)[C@H](Cc4c[nH]cn4)NC(=O)[C@@H](NC(=O)[C@@H](NC(=O)CNC(=O)[C@H](CO)NC(=O)CNC(=O)CNC(=O)[C@@H](N)CCCCN)C(C)C)[C@@H](C)CC)[C@H](C)SC[C@H](NC(=O)[C@H](CCC(=O)O)NC(=O)[C@H](Cc4c[nH]cn4)NC3=O)C(=O)N[C@@H](CCCNC(=N)N)C(=O)N[C@@H](CCSC)C(=O)N[C@@H](CC(N)=O)C(=O)N2)NC1=O	Lactococcus lactis subsp. cremoris	cell growth	HP			IC50	0.428 ± 0.021 µM
